{"data": "Measurements from different studies", "note": "Parts stem from different laboratories: compare values within a part only.", "sequence of UniProt P53355 (whole entry, looked up)": "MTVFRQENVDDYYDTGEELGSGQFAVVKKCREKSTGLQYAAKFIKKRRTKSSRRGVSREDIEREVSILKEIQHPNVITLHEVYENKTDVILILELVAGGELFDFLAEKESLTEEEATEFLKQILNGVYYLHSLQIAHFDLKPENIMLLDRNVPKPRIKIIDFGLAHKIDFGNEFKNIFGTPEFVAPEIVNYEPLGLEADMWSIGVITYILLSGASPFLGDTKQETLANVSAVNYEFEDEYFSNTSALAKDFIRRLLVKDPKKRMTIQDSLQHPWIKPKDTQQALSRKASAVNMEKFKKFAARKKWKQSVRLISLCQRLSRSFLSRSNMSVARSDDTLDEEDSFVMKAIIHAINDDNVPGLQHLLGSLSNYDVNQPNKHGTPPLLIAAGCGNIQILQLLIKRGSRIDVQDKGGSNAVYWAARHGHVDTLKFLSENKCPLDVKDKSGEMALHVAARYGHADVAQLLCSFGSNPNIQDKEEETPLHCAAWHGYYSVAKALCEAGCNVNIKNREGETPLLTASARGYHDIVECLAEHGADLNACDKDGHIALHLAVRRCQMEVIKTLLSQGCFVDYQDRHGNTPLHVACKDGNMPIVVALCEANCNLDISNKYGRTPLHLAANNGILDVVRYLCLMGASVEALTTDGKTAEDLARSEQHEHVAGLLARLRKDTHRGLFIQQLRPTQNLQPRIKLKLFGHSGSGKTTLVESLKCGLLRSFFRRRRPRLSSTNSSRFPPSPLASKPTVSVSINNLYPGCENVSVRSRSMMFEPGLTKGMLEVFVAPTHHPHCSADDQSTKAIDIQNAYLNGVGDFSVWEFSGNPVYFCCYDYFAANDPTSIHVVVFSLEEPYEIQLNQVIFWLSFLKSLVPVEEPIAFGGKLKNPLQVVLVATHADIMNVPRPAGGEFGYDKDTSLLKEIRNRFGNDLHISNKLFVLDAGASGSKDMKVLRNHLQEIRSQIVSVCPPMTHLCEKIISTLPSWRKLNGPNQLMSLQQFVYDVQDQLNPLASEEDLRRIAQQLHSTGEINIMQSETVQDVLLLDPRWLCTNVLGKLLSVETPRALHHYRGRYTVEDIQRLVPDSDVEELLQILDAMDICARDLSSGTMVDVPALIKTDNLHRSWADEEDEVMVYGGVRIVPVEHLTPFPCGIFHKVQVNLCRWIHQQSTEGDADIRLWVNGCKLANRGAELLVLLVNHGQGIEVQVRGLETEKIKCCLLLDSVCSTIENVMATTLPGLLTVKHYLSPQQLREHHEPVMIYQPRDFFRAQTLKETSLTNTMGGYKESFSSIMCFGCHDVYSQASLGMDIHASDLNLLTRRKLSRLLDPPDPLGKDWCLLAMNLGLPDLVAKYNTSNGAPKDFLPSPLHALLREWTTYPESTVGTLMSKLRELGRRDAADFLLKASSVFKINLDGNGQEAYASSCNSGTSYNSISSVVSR", "sequence of UniProt P42338 (whole entry, looked up)": "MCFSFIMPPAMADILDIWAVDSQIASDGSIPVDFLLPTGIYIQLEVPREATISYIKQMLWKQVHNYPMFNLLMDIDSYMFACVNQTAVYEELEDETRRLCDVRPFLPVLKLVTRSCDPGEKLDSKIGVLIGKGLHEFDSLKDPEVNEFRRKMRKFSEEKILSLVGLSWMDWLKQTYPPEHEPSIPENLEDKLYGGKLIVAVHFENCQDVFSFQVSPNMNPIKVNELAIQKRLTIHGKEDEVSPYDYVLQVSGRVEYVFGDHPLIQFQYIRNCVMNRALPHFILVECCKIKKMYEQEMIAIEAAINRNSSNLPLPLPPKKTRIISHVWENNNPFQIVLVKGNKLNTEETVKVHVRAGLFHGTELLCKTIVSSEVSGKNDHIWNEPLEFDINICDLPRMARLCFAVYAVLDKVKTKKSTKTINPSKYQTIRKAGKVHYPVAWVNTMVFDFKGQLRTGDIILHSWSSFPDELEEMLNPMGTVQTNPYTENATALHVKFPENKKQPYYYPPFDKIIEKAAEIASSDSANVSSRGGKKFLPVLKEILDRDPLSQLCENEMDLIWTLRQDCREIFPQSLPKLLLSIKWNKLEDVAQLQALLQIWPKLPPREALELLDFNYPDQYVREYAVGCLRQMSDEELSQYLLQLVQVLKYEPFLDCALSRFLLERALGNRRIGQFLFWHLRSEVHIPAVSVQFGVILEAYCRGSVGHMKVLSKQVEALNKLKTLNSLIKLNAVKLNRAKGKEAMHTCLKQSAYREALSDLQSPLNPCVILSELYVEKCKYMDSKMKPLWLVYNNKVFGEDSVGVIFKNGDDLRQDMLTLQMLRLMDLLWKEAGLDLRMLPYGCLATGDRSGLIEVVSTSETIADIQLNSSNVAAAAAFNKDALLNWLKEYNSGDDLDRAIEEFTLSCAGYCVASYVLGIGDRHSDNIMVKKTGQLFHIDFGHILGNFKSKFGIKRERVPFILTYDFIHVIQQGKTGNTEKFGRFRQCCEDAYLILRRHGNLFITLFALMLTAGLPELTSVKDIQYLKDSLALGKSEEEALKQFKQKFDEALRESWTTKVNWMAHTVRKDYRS", "sequence of UniProt Q13555 (whole entry, looked up)": "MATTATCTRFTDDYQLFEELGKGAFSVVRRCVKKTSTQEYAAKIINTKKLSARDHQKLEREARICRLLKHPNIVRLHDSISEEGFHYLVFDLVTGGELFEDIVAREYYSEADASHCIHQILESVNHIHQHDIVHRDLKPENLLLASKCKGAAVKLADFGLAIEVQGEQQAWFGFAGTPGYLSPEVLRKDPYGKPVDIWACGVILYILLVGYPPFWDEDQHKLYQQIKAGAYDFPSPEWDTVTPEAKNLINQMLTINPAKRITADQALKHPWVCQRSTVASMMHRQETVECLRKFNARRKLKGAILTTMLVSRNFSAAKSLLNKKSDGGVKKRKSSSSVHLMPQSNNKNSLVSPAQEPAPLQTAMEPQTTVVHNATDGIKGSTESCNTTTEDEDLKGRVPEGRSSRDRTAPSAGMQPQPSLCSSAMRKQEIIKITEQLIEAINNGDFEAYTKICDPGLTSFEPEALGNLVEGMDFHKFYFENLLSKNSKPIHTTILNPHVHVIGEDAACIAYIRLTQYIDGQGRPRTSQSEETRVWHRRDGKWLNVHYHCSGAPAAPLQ", "sequence of UniProt P15056 (whole entry, unmodified, looked up)": "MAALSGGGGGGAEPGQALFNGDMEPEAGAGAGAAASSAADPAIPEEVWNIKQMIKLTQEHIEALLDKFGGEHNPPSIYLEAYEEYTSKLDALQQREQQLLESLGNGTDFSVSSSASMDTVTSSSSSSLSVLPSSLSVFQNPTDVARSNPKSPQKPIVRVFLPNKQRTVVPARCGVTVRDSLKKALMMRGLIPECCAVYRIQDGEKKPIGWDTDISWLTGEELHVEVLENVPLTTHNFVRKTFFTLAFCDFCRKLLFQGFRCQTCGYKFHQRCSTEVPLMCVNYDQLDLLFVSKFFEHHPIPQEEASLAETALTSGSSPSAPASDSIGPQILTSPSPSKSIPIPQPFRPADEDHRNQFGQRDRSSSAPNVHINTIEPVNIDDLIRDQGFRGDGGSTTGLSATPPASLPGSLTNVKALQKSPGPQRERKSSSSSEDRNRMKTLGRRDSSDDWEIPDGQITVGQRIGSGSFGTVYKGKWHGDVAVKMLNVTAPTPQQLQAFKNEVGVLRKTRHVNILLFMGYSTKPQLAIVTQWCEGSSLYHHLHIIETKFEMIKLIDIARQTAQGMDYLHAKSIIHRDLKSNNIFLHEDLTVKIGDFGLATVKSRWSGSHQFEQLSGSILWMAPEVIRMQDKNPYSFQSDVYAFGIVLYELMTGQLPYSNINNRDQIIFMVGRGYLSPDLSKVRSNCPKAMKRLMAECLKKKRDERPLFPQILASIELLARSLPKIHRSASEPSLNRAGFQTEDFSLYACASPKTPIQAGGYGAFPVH", "sequence of UniProt Q6PHR2 (whole entry, looked up)": "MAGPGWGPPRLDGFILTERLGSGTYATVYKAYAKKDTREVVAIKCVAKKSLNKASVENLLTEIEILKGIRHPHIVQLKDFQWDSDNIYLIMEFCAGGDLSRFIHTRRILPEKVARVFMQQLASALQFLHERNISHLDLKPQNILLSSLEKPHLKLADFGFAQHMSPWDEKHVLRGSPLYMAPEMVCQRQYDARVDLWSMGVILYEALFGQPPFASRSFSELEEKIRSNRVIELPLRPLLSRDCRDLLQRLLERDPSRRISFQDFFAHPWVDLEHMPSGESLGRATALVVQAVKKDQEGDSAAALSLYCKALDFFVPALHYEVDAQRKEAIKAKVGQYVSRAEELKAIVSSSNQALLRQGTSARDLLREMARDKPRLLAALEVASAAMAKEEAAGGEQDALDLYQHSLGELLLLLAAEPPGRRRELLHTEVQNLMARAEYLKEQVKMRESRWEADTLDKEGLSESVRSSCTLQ"}
{"data": "Study 1", "SMILES": "O=C(O)[C@@H]1[C@@H](Cn2nnc3ccccc3c2=O)CC[C@H]1C(=O)c1ccc(OCCC2CCOCC2)cc1", "effect on": "cell-free assay", "technique": "competition with immobilised ligand", "tested at": "1 µM"}
{"target": "PIK3CD (Homo sapiens, UniProt O00329)", "remaining binding": "99%"}
{"target": "TNK2 (Homo sapiens, UniProt Q07912)", "remaining binding": "100%"}
{"target": "PI4KB (Homo sapiens, UniProt Q9UBF8)", "remaining binding": "83%"}
{"target": "CAMK2G (Homo sapiens, UniProt Q13555)", "remaining binding": "100%"}
{"target": "EPHA4 (Homo sapiens, UniProt P54764)", "remaining binding": "92%"}
{"target": "TTK (Homo sapiens, UniProt P33981)", "remaining binding": "89%"}
{"target": "PRKAA2 (Homo sapiens, UniProt P54646)", "remaining binding": "100%"}
{"target": "PRKCE (Homo sapiens, UniProt Q02156)", "remaining binding": "100%"}
{"target": "MAP2K6 (Homo sapiens, UniProt P52564)", "remaining binding": "100%"}
{"target": "BRAF (Homo sapiens, UniProt P15056, V600E)", "remaining binding": "100%"}
{"target": "DAPK1 (Homo sapiens, UniProt P53355)", "remaining binding": "100%"}
{"target": "PIK3CB (Homo sapiens, UniProt P42338)", "remaining binding": "66%"}
{"target": "CAMK4 (Homo sapiens, UniProt Q16566)", "remaining binding": "75%"}
{"target": "PRKD2 (Homo sapiens, UniProt Q9BZL6)", "remaining binding": "73%"}
{"data": "Study 2", "Compound": "CC(C)[C@H](CO)Nc1nc(Nc2cccc(Cl)c2)c2ncn(C(C)C)c2n1"}
{"target": "Trypanosoma brucei NEK Tb427tmp.02.4530", "effect on": "binding", "technique": "kinobead competition", "sample": "Trypanosoma brucei lysate", "IC50": "> 10 µM"}
{"target": "Trypanosoma brucei protein Tb427tmp.57.0008", "effect on": "binding", "technique": "kinobead competition", "sample": "Trypanosoma brucei lysate", "IC50": "> 10 µM"}
{"target": "ULK3 (Homo sapiens, UniProt Q6PHR2)", "IC50": "> 10 µM"}
{"target": "Trypanosoma brucei protein Tb427tmp.01.8085", "effect on": "binding", "technique": "kinobead competition", "sample": "Trypanosoma brucei lysate", "IC50": "> 10 µM"}
{"target": "Trypanosoma brucei kinase Tb427tmp.01.0930", "effect on": "binding", "technique": "kinobead competition", "sample": "Trypanosoma brucei lysate", "IC50": "> 10 µM"}
{"target": "protein Tb427tmp.01.3560", "technique": "kinobead TMT proteomics", "organism": "Trypanosoma brucei", "sample": "cell lysate", "IC50": "> 10 µM"}
{"target": "Eukaryotic translation initiation factor 3 subunit J (Homo sapiens, UniProt O75822)", "IC50": "> 10 µM"}
{"data": "Study 3", "target": "G protein-coupled receptor kinase 6 (GRK6, Homo sapiens, UniProt P43250)", "effect on": "enzyme activity", "action": "inhibitor", "tested at": "0.5 µM", "baseline": "control", "sequence of UniProt P43250 (whole entry, looked up)": "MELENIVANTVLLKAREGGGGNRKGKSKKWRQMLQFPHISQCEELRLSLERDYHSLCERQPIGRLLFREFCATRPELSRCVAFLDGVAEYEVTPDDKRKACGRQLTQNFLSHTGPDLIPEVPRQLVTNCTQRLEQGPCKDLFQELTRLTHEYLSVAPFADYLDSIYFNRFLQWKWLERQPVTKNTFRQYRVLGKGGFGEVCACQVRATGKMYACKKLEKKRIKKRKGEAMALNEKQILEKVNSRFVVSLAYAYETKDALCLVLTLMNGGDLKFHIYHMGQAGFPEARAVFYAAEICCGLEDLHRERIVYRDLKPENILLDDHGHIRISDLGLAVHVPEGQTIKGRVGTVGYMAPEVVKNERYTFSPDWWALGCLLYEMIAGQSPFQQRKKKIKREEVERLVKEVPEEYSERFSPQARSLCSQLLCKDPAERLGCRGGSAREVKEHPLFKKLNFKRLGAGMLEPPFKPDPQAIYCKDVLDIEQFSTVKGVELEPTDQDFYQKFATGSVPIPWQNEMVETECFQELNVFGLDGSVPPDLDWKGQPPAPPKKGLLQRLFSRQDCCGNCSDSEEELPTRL"}
{"Structure (SMILES)": "CCN(CC)C(=O)c1ccc(Nc2nc(OCC3CCCCC3)c3[nH]cnc3n2)cc1", "remaining activity [%]": 99.5}
{"Structure (SMILES)": "C[C@@H]1CCN(C(=O)CC#N)C[C@@H]1N(C)c1ncnc2[nH]ccc12", "remaining activity [%]": 101}
{"Structure (SMILES)": "Cc1cn(-c2cc(NC(=O)c3ccc(C)c(Nc4nccc(-c5cccnc5)n4)c3)cc(C(F)(F)F)c2)cn1", "remaining activity [%]": 108}
{"Structure (SMILES)": "Ic1cccc(CSc2nnc(-c3ccncc3)o2)c1", "remaining activity [%]": 100}
{"Structure (SMILES)": "O=C1c2ccccc2-c2n[nH]c3cccc1c23", "remaining activity [%]": 90.1}
{"data": "Mixed results", "species": "female C57BL/6 mouse", "sample": "plasma", "route": "oral", "dose": "10 mg/kg"}
{"SMILES": "COC(=O)c1cc(Cl)ccc1N(C)C(=O)c1ccn2ncc(-c3ccc(C(N)=O)cc3)c2c1", "AUC [µM·h]": 0.142}
{"SMILES": "CNC(=O)c1ccc(-c2cnn3ccc(C(=O)N(C[C@H]4CCC(=O)O4)c4ccc(OC(F)(F)F)cc4)cc23)cc1", "AUC [µM·h]": 0.075}
{"note": "A few entries again (study 1):"}
{"target": "MAP2K6 (Homo sapiens, UniProt P52564)", "remaining binding": "100%"}
{"target": "BRAF (Homo sapiens, UniProt P15056, V600E)", "remaining binding": "100%"}
{"target": "DAPK1 (Homo sapiens, UniProt P53355)", "remaining binding": "100%"}
